Results gathered from unrelated publications.
Parts stem from different laboratories: compare values within a part only. Positions count from the first letter of the parent shown.

Set 1 — target: CCND3, cyclin fold, Cln2 fusion (human); method: yeast growth competition, sequencing; matrix: yeast; notes: weak parent motif; reference: not given; reading: higher = stronger binding
Parent: WEE1 docking peptide (human); HKTFRKLRLFDTP
For `K6L`, “normalised enrichment score” read 0.0655.
`R5A`: “normalised enrichment score” -0.085.
`D11H`: “normalised enrichment score” -0.0771.
Under “normalised enrichment score”, `K2Q` is recorded as 0.146.
For `R5N`, “normalised enrichment score” read -0.649.
Under “normalised enrichment score”, `P13V` is recorded as 0.184.
Under “normalised enrichment score”, `L9V` is recorded as 0.121.
Under “normalised enrichment score”, `L9R` is recorded as 0.143.
Under “normalised enrichment score”, `F10M` is recorded as 0.136.
For `F4Y`, “normalised enrichment score” read 0.142.
`K6V` — result for “normalised enrichment score”: 0.0285.
`T3N` — result for “normalised enrichment score”: 0.0322.
`F4V` — result for “normalised enrichment score”: 0.107.
For `K2N`, “normalised enrichment score” read 0.174.
For `K2V`, “normalised enrichment score” read 0.121.

Set 2 — target: ATF2, bZIP domain (human); method: DHFR protein complementation; matrix: yeast; reference: wild-type JUN-FOS pair; reading: higher = stronger binding
Notes: single substitutions, most at no-binding floor
Parent: JUN, bZIP domain (human); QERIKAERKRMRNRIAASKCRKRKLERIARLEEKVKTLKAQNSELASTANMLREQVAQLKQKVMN; partner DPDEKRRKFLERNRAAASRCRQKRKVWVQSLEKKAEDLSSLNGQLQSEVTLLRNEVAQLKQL
With `L45I` the binding fitness was -1.55 natural log.
`T48V` gave a binding fitness of -1.36 natural log.
`K39Q` has a binding fitness of -1.24 natural log.
`A29W` gave a binding fitness of -1.46 natural log.
With `V35M` the binding fitness was -1.32 natural log.
`A29M` has a binding fitness of -1.47 natural log.
The binding fitness of `K34Q` is reported as -1.07 natural log.
`A57M` gave a binding fitness of -1.47 natural log.
With `R30P` the binding fitness was -1.4 natural log.
`A49D` gave a binding fitness of -1.5 natural log.
With `Q41L` the binding fitness was -1.49 natural log.

Set 3 — method: RNA Bind-n-Seq; molecule type: RNA; matrix: in vitro; tested at: 365 nM; reference: no-protein control; reading: higher = stronger binding
Target: RNA binding protein fox-1 homolog 2, RRM domain, GST-SBP tag (RBFOX2, Homo sapiens, UniProt O43251-10, residues 100-194)
Notes: natural RNA segment, single round, ends assumed
All sequences stand within: GGGAGUUCUACAGUCCGACGAUC … UGGAAUUCUCGGGUGCCAA
`GUCCCCCAUCUUCCUUUUGGUCACCUUCAUCUGUGUGUCAGUUAAGACACAGUGAGGGACAGCCCAGCUGCAAUAAAAGGGAUUUUCUAUGUCAGAAGCAGCAGGCUUUG` — result for “RBNS enrichment (R)”: 0.394.
For `CUAUUAUGUUGGCAGUGGGUGGCAGGCAGAGGCAGGCACGCGAUUAGUAGAGCCCUGCUUGGGCCUCACUUUGUGGACACCAGGCUGGUGCACCUCCCUUUUCAGGCACU`, “RBNS enrichment (R)” read 2.32.
`GAUGGGCGCUGACCCCCUAUCCAGAAUCACAUGCACAAGUUUUUACCUAGCCAGUUGUUUCUGAGGACCAGGCAACUUUUGAACUCCUGUCUCUGUGAGAAUGUAUACUU` — result for “RBNS enrichment (R)”: 0.437.
For `AGUGGCGGUGGUGCGUAGAACAUUAUGCUAAGGCCCAGAACUGAUCAGAGAAUUUGUUCACCACCGUCUCCAGGCAGCAACGCCAAGGGCAAGUCUGAUCUCAGCACCCA`, “RBNS enrichment (R)” read 0.427.
`UUUUUUAAAAAAUGAAAAAGAAAAAAAAGAAGAGAAAAACCCAUAAAUAAGUGCAUUGAGAAGAACAUGGAGAGGAUGCUGUCCUCUGCAACAGAGACAGGCCCGUGGCG` — result for “RBNS enrichment (R)”: 0.502.
Under “RBNS enrichment (R)”, `CUUUGAACAGCAGCCAAGGACAGCAGGGUCAUCAGGAUGUUUGGAGCCUGUCCUCUCAGGAGCUACAAAAGGAAUGCAGAAUUCUGUCUCUGUCCCUCCCACCUUGCCUU` is recorded as 0.876.
`UAGAAAAACUUUUGAAUAUUUUAGUUCAUUGUUCAGAUAUGUUAACUCAAGAUUAGUUUAAUUAAACUAACGAAUAGUUUUGGACACUUUAAAAGAGCUCUAAAUUUGCU`: “RBNS enrichment (R)” 0.382.
Under “RBNS enrichment (R)”, `GCUGAGCUGCAGUGAUGACGCUACACACCAACCAUGGCUUUAGCAGCAGCCCUGGUUCCUUCCCAGUCAUACUUAUGGAAGAUGUGCCCUUCCAGAGGAAUAAGUUUGUU` is recorded as 0.63.

Set 4 — method: RNA Bind-n-Seq; molecule type: RNA; matrix: in vitro; tested at: 200 nM; notes: whole 134-nt RNA, ends assumed; added: 150 mM KCl; reference: input library; reading: higher = stronger binding
Target: Ras GTPase-activating protein-binding protein 1, full length (G3BP1, Homo sapiens, UniProt Q13283)
Chain of UniProt Q13283 (whole entry, looked up): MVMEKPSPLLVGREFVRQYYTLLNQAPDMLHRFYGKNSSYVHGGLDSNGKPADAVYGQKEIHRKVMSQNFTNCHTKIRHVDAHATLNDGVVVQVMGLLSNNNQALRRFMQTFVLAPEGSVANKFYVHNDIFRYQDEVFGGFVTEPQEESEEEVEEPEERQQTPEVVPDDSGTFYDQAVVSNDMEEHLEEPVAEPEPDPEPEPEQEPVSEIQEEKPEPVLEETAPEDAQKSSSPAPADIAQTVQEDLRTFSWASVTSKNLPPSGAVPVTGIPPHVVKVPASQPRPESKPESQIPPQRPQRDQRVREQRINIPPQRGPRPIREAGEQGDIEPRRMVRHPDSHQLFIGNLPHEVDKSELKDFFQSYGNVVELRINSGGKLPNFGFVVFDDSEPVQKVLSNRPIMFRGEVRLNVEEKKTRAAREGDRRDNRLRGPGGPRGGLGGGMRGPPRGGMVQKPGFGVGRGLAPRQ
All sequences stand within: GGGAGUUCUACAGUCCGACGAUC … UGGAAUUCUCGGGUGUCAAGG
For `UCCUGUGCUACACAUCGUAUGUACCGAAUCGGAAAAAAGGAAAAAAGGGGAAAAAAGGGGAAAGUAUUAUGUUACGCCGUUCGGAUCUGC`, the log2 enrichment was -0.691.
For `UGGGAGGUGGGUUUUGUUUAUUUUUUUAGCUCAUUUCCAGGGGUGGGAAUUUUUUUUUAAUAUGUGUCAUGAAUAAAGUUGUUUUUGAAA`, the log2 enrichment was 0.386.
The log2 enrichment of `CUCAAGUCCUGUGCUACACAUCGUAUGUACCGAAUCGGGUGGGUGGGUUUGGGAAAGUAUUAUGUUACGCCGUUCGGAUCUGCACUUCCA` is reported as 0.722.
`UAACUUUAGAGGAGGAUCUGGUGGAUAUGGCAGUGGACGUGGAUUUGGGGAUGGCUAUAAUGGGUAUGGAGGAGGACCUGGAGGUGGCAA` gave a log2 enrichment of 0.48.
`UUGCUAACUUCAAGAUAGAGCCUCCUGGACUUUUCCGUGGCCGCGGCAACCACCCCAAGAUGGGCAUGCUGAAGAGACGAAUCAUGCCCG` gave a log2 enrichment of -0.609.
The log2 enrichment of `CUCAAGUCCUGUGCUACACAUCGUAUGUACCGAAUCGGAGGAGGUUUUUUUGGAAAGUAUUAUGUUACGCCGUUCGGAUCUGCACUUCCA` is reported as -0.391.
`CCUGUGCUACACAUCGUAUGUACCGAAUCGGGGCCCCCCGGGGCCCCCCGGGGCCCCCCGGAAAGUAUUAUGUUACGCCGUUCGGAUCUG` has a log2 enrichment of -0.898.
`GCAGGAAGUAAAAACAAAUGGAAAUGCUUCGGAUAGUGGCAGGGGUGGGGGUUGCUAAGGAAAGGGUGGGAUGGGAGUGGGUAAAGACUU` gave a log2 enrichment of 1.66.
For `UCAAGUCCUGUGCUACACAUCGUAUGUACCGAAUCGGGAGGGAAAAAGGGAGGGAAAGUAUUAUGUUACGCCGUUCGGAUCUGCACUUCC`, the log2 enrichment was 1.13.

Set 5 — method: protein binding microarray; molecule type: double-stranded DNA, one strand shown; matrix: in vitro; tested at: not given; reference: not given; reading: higher = stronger binding
Target: Histone acetyltransferase KAT6A, winged helix 2, GST fusion (KAT6A, Homo sapiens, UniProt Q92794, residues 85-181)
Notes: 8-mer, flanks averaged, mean of 2 arrays, mostly near background
Construct (chain): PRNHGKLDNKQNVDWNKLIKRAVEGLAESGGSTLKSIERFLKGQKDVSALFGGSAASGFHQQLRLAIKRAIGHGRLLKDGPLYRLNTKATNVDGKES
With `GTGGAGCA` the E-score was 0.183.
`GGTTACAC` gave an E-score of -0.147.
The E-score of `ACCTTTTC` is reported as -0.162.
The E-score of `GGACCGCC` is reported as 0.103.
`TCACGCGA` has an E-score of -0.0413.
`GCAGAACC` has an E-score of 0.0402.
For `CAGAGGTC`, the E-score was -0.101.
`TACTAACA` has an E-score of 0.00825.
For `AGCACTTC`, the E-score was -0.0358.
`ACTCTCAA` gave an E-score of -0.0626.
The E-score of `ATCGAAAA` is reported as 0.176.
`AACCAGAA` has an E-score of -0.033.
`CATGTAAC` has an E-score of -0.17.
`ACTTGGGA` has an E-score of 0.0677.
`ACAGACAC` gave an E-score of 0.166.
The E-score of `TCGTCGCA` is reported as 0.142.
For `TAAGACCA`, the E-score was -0.0556.
For `ACACGTAT`, the E-score was -0.128.
With `CACGTCAG` the E-score was -0.0393.

Other studies, line by line
For `PhoQ, residues 284 288 289 292 302 303 ALSMDL`, the fold induction was 18.5 (PhoP, residues 12 14 15 18 19 SGWQI (Escherichia coli, UniProt P23836); Sort-seq, item: YFP reporter; E. coli; PhoQ-PhoP variant library, added: 10 µM Mg2+; reference: high Mg2+ state, higher = stronger signaling).

Excerpt of the above (set 1):
Under “normalised enrichment score”, `L9V` is recorded as 0.121.
`D11H`: “normalised enrichment score” -0.0771.
`T3N` — result for “normalised enrichment score”: 0.0322.
For `R5N`, “normalised enrichment score” read -0.649.
